# Experimental data of several laboratories.
# Numbered parts are unrelated; each lists some results of a single study. Changes are numbered by the printed parent chain.
# UniProt Q9LQE8, sequence (whole entry, looked up): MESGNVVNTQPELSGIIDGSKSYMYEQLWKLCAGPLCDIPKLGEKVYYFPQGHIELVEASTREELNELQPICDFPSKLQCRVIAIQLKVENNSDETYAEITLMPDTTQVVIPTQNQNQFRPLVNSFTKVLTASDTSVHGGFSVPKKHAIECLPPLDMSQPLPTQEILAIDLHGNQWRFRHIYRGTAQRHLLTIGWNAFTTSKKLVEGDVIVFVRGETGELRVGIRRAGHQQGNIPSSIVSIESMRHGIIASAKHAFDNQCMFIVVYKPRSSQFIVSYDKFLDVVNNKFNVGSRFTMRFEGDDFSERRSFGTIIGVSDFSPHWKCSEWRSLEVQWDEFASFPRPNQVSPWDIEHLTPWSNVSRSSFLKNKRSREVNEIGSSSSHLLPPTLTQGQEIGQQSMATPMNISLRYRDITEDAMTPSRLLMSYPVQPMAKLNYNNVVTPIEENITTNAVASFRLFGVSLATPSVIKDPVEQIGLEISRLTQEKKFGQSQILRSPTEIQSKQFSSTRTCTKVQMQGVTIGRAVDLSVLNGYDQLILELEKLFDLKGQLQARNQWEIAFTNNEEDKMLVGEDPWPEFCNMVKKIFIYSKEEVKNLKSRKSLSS
# UniProt Q8H174, sequence (whole entry, looked up): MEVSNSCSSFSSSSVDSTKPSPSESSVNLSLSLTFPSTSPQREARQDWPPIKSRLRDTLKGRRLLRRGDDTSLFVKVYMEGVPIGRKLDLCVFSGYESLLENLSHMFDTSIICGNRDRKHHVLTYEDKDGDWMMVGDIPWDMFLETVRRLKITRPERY
# UniProt Q38829, sequence (whole entry, looked up): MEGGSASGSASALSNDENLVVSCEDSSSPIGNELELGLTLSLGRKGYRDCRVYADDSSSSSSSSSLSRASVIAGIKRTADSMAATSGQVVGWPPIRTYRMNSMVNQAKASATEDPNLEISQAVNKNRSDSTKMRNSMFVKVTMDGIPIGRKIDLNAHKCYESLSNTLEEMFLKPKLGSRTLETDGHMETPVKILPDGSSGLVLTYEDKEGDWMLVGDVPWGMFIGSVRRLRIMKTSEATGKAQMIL
# UniProt Q9C5W9, sequence (whole entry, looked up): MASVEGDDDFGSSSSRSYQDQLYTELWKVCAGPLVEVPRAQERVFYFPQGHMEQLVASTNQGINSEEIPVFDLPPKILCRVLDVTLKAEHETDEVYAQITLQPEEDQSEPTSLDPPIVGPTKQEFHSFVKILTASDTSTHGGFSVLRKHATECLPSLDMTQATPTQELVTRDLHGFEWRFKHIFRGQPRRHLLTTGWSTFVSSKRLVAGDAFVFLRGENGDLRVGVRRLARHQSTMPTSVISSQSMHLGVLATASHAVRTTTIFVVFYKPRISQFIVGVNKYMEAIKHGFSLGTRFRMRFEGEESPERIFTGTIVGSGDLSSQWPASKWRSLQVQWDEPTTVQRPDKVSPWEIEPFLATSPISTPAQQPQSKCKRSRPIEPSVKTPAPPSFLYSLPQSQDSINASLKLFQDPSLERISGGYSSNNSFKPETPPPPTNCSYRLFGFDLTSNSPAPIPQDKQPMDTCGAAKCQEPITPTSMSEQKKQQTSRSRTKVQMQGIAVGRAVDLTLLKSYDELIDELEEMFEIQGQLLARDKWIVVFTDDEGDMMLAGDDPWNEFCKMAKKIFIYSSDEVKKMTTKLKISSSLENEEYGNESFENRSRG
# UniProt Q9FX25, sequence (whole entry, looked up): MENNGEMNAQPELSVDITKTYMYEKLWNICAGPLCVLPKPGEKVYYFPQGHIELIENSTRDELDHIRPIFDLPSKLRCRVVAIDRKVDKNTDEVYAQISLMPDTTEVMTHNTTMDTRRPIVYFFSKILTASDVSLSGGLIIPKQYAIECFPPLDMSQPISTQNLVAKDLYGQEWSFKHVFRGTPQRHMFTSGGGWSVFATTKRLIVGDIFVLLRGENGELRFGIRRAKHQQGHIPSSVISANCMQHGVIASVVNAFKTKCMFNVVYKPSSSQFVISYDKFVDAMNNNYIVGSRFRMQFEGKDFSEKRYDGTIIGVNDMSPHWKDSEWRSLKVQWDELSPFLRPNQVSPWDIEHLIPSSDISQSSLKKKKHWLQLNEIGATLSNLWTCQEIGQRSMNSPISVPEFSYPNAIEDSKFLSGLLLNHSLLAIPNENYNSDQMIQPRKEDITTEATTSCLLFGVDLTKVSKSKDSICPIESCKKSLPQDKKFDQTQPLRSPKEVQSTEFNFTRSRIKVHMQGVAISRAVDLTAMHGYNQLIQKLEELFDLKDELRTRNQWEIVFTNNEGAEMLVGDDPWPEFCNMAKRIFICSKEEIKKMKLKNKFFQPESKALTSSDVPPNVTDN
# UniProt Q9XID4, sequence (whole entry, looked up): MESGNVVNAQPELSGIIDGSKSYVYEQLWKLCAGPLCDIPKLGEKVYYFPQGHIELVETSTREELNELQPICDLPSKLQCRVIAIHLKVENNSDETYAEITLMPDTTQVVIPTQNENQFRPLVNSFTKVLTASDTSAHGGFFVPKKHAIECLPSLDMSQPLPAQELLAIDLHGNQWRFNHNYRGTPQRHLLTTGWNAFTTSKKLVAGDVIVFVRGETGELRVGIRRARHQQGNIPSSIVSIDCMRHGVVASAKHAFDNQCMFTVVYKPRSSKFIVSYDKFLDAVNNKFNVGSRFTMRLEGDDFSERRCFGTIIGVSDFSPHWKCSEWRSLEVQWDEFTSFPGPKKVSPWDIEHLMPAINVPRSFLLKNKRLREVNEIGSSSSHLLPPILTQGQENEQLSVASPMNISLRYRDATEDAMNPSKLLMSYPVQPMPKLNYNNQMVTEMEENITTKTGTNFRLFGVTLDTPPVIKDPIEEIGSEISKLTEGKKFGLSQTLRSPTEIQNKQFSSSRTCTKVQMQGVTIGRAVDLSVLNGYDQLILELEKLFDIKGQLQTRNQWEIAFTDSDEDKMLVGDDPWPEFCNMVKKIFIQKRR

# Set 1
# Target: ABI1, truncated, D143A, DHFR fusion (Arabidopsis thaliana)
# Method: DHFR PCA, deep sequencing
# Sample: yeast
# Setting: methotrexate growth selection, single substitutions
# Together with: (+)-ABA 2500 µM
# Reference: wild-type fitted maximum
# Direction: higher = stronger binding
# Starting sequence: PYL1, truncated, DHFR fusion (Arabidopsis thaliana); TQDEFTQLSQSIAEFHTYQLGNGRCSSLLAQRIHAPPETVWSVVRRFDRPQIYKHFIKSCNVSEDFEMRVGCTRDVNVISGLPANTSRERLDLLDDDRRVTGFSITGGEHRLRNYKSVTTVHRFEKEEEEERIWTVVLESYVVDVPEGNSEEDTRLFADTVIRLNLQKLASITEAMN; partner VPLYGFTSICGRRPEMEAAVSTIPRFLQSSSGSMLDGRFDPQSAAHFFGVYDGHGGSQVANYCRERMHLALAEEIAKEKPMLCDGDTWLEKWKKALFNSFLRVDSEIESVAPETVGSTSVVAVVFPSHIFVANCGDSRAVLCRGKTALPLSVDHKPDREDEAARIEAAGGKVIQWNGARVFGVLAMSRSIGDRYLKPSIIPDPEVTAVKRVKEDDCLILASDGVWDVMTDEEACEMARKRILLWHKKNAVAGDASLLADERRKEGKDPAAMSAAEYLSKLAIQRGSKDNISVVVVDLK
Substitution,relative binding score
S171N,94.2%
L94G,24.9%
M68D,91.2%
V121W,-1.66%
D153F,18.9%
S42E,107%
V136W,103%
N165C,47.2%
P36C,103%
H55G,94.5%
T106K,99%
H16Q,53.3%
Q51S,87.8%
R32Y,95.9%
S140M,31.4%
K116N,100%
L28M,102%
F124H,92.7%
R24M,92.4%
G23M,97.5%
R111I,65.8%
R88M,93.2%
D75S,99.3%
L112P,28.2%

# Set 2
# Target: Fragile X messenger ribonucleoprotein 1, C-terminal low-complexity region (Fmr1, Mus musculus, UniProt P35922)
# Method: RNA Bind-n-Seq
# Form: RNA
# Sample: in vitro
# Concentration: 200 nM
# Setting: whole 134-nt RNA, ends assumed
# Together with: 150 mM LiCl
# Reference: input library
# Direction: higher = stronger binding
# All molecules: 7-deaza-guanosine replaces G
# All sequences stand within: GGGAGUUCUACAGUCCGACGAUC … UGGAAUUCUCGGGUGUCAAGG
Oligonucleotide,log2 enrichment
UAAAUUUAGAGGAGGAUCUGAUGGAUAUGGCAGUGGACGUGGAUUUGGGGAUGGCUAUAAUGGGUAUGGAGGAGGACCUGGAGGUGGCAA,0.278
UACUGCUCCUCAGCAGGAAGCGGAUGCUGAGGUGAACACAGAAACACUAAAUAAGUCCUCCCAGGGGAGCUCCUCGAGCACACAAUCAGC,1.56
CAAGUCCUGUGCUACACAUCGUAUGUACCGAAUCGGCCCGGGGCCCGGGCCCGGGAAAGUAUUAUGUUACGCCGUUCGGAUCUGCACUUC,-1.86
AAGUCCUGUGCUACACAUCGUAUGUACCGAAUCGGGGAAAGGGGAAAGGGGUGGGGAAAGUAUUAUGUUACGCCGUUCGGAUCUGCACUU,0.00754
UGGCCGUGGUGGCAUGCGGGGAGGAAGAGGUGGCCUCAUGGAUCGUGGUGGUCCCGGUGGAAUGUUCAGAGGUGGCCGUGGUGGAGACAG,0.0195
AGUCCUGUGCUACACAUCGUAUGUACCGAAUCGGGGCCCCGGGCCCCGGGCCCCGGGGAAAGUAUUAUGUUACGCCGUUCGGAUCUGCAC,-3.06
CACAGACAACACGCACCCACACCGACACAGAGGGAAGGGGUUGGGAUGGGGACAGGGUGCACAGCAGGGCGGGGUAGGACCCCAGCCCCU,-0.227
UCCGCGUGUGAAGUUUUUCUCGGCUGCAUCAUGGGUGCCACAUUCUUUUUGUUGUUUUCAGUGCUGCAAAAGCCCCAUAUCUGGCCAAGU,-0.0111
UAACUUUAGAGGAGGAUCUGAUGGAUAUGGCAGUGGACGUGGAUUUGGGGAUGGCUAUAAUGGGUAUGGAGGAGGACCUGGAGGUGGCAC,1.04
CCUGUGCUACACAUCGUAUGUACCGAAUCGGGGAAAGGGGAAAAAAAGGGGAAAAAGGGGAAAGUAUUAUGUUACGCCGUUCGGAUCUGC,1.12
CAAGUCCUGUGCUACACAUCGUAUGUACCGAAUCGGGAGGGUUUGGGUUUUUGGGAAAGUAUUAUGUUACGCCGUUCGGAUCUGCACUUC,-0.375

# Set 3
# Molecule: B1 (IAA10)
# Method: two-hybrid
# Direction: higher = firmer interaction
# B1: IAA10 (Arabidopsis thaliana, UniProt Q38828); chain MNGLQEVCSSSGSVMIGLPAEEDENAAHSSEDSSCPDESVSETELDLALGLSIGRRKVRSSLSSSSSSLTRESGTKRSADSSPAAASNATRQVAVGWPPLRTYRINSLVNQAKSLATEGGLSSGIQKETTKSVVVAAKNDDACFIKSSRTSMLVKVTMDGVIIGRKVDLNALDSYAALEKTLDLMFFQIPSPVTRSNTQGYKTIKETCTSKLLDGSSEYIITYQDKDGDWMLVGDVPWQMFLGSVTRLRIMKTSIGAGVGK
partner,setting,how to read,positive tests
"IAA11 (Arabidopsis thaliana, UniProt Q38829)",weak activation fusion,reference: out of 2 tests,0
"ARF12 500-593 (Arabidopsis thaliana, UniProt Q9XID4)",,reference: out of 4 tests,1
"IAA31 (Arabidopsis thaliana, UniProt Q8H174)",,reference: out of 4 tests,4
"ARF14 497-605 (Arabidopsis thaliana, UniProt Q9LQE8)",,reference: out of 2 tests,0
"ARF18 482-602 (Arabidopsis thaliana, UniProt Q9C5W9)",,reference: out of 4 tests,2
"ARF13 (Arabidopsis thaliana, UniProt Q9FX25)",,reference: out of 2 tests,0

# Set 4
# Target: CCNA1, cyclin fold, Cln2 fusion (human)
# Method: yeast growth competition, sequencing
# Sample: yeast
# Setting: weak parent motif
# Reference: not given
# Direction: higher = stronger binding
# Starting sequence: SAMHD1 docking peptide (human); ASKSRVQLFKDDP; partner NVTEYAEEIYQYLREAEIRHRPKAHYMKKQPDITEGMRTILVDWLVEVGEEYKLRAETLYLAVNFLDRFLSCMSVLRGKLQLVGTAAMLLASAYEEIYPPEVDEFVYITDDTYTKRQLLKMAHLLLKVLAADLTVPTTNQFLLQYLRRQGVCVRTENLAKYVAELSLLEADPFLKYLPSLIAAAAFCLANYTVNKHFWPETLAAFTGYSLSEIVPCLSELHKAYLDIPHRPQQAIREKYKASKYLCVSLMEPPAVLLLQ
Substitution,normalised enrichment score
ASRSRVQLFKDDP [K3R],0.3
ASKSRVQLFKDSP [D12S],0.0419
ASKERVQLFKDDP [S4E],-0.0288
ASKSRVQLFDDDP [K10D],0.0865
ASKSRVQLFKDHP [D12H],0.374
ASKSRVQLAKDDP [F9A],0.0902
ASKSEVQLFKDDP [R5E],-0.0359
ASKSRVQLFIDDP [K10I],0.262
ASKSRVQLYKDDP [F9Y],0.31
ASKSRVQLFKKDP [D11K],0.466
ASKSRVQHFKDDP [L8H],-0.00752
ASKSRVQCFKDDP [L8C],0.534
ASKSWVQLFKDDP [R5W],-0.0473
ASKSRVQMFKDDP [L8M],0.173
ASKSRVQLVKDDP [F9V],0.46
ASKSRVQLFKDCP [D12C],0.185

# Set 5
# Target: CREM, bZIP domain (human)
# Method: DHFR protein complementation
# Sample: yeast
# Setting: single substitutions, most at no-binding floor
# Reference: wild-type JUN-FOS pair
# Direction: higher = stronger binding
# Starting sequence: JUN, bZIP domain (human); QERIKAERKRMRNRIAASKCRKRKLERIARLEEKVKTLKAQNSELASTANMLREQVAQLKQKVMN; partner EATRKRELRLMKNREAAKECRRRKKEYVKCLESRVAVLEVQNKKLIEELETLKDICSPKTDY
Substitution,binding fitness [natural log]
A49L,-1.44
S43R,-1.39
S47E,-1.29
Q55T,-1.47
Q41N,-1.47
A49Y,-1.37
L45R,-1.55
L31I,-1.55
R53S,-1.54
K36S,-1.54
E32V,-1.58
K39C,-1.5
R30N,-1.41
K39N,-1.47
S43P,-1.56

# Set 6
# Target: Histone acetyltransferase KAT6A, winged helix 2, GST fusion (KAT6A, Homo sapiens, UniProt Q92794, residues 85-181)
# Method: protein binding microarray
# Form: double-stranded DNA, one strand shown
# Sample: in vitro
# Concentration: not given
# Setting: 8-mer, flanks averaged, mean of 2 arrays, mostly near background
# Reference: not given
# Direction: higher = stronger binding
# Construct (chain): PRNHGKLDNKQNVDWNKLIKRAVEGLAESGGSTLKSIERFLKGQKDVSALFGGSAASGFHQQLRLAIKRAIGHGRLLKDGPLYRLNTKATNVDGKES
Oligonucleotide,E-score
CCTATCCA,-0.129
GATCCCCC,-0.19
GACGAAAC,0.103
CGGGGTCC,0.0519
ATCCCTCG,0.00358
CAGGTGTA,-0.118
GCGTTCGA,0.107
ATCATTGG,-0.0868
CTACGTTC,-0.0132
ACCGGTCA,-0.0697
AATAGACA,-0.0209
CTCTCGGA,0.107
ACGACTGG,-0.0323
CGACCCAA,0.181
GGAGGCAA,0.00594
ACTGTAGA,-0.0583
GTTCGCTA,0.017
CAACAACC,0.0348

# Other studies, line by line
Molecule,partner,test,setting,endpoint,result
"CDH2 (Homo sapiens, UniProt P19022)","CTNNB1 (Homo sapiens, UniProt P35222)",cross-linking MS,hits only,interaction screen,cross-linked

# Excerpt of the above (set 4):
Substitution,normalised enrichment score
ASKSRVQLFIDDP [K10I],0.262
ASRSRVQLFKDDP [K3R],0.3
ASKSRVQLFDDDP [K10D],0.0865
ASKSWVQLFKDDP [R5W],-0.0473
ASKSRVQLFKDSP [D12S],0.0419
ASKSRVQLVKDDP [F9V],0.46
ASKSRVQHFKDDP [L8H],-0.00752
ASKSEVQLFKDDP [R5E],-0.0359
ASKSRVQLFKDHP [D12H],0.374
ASKSRVQLYKDDP [F9Y],0.31
ASKSRVQLFKKDP [D11K],0.466
ASKSRVQMFKDDP [L8M],0.173
ASKERVQLFKDDP [S4E],-0.0288
ASKSRVQLFKDCP [D12C],0.185
